Published values of several laboratories.
“And” joins repeats or separate records; there may be more than shown. Numbers after ± are the reported error.
Genome polyprotein NS2B-NS3 protease: Genome polyprotein, NS2B-NS3 protease (dengue virus type 2, UniProt P29990)
T1: G-quadruplex DNA, G-quadruplex (Homo sapiens); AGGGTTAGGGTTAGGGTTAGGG
T2: riboswitch RNA, fused to Pepper aptamer; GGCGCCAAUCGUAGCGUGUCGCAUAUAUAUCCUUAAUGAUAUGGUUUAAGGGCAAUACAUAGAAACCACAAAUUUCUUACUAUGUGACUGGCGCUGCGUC
UniProt P45983, sequence (whole entry, looked up): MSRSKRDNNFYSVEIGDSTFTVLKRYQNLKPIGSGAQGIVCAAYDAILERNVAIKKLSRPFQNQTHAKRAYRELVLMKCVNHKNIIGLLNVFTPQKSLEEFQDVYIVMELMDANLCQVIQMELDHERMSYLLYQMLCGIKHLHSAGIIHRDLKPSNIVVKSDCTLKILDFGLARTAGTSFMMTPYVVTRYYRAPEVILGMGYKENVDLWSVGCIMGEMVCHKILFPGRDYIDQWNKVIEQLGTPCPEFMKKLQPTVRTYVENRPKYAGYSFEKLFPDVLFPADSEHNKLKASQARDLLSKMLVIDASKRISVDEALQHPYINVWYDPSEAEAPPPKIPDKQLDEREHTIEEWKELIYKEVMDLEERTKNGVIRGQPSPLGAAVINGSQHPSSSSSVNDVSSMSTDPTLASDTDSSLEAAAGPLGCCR
UniProt Q86TW2, sequence (whole entry, looked up): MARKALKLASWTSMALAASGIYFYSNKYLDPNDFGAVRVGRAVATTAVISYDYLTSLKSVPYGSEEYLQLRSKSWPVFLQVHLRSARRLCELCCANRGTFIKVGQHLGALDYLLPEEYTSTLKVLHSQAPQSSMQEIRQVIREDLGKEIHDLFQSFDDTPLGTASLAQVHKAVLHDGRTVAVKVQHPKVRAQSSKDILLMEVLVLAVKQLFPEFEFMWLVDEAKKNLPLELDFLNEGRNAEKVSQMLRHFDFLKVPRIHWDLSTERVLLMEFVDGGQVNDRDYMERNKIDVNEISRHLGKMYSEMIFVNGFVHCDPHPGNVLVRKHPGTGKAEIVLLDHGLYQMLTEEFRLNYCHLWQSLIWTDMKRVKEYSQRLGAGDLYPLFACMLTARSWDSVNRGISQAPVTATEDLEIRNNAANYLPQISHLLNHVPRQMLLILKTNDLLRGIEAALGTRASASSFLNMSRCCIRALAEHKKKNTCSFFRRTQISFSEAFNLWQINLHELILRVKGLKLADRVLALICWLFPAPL
UniProt P30531, sequence (whole entry, looked up): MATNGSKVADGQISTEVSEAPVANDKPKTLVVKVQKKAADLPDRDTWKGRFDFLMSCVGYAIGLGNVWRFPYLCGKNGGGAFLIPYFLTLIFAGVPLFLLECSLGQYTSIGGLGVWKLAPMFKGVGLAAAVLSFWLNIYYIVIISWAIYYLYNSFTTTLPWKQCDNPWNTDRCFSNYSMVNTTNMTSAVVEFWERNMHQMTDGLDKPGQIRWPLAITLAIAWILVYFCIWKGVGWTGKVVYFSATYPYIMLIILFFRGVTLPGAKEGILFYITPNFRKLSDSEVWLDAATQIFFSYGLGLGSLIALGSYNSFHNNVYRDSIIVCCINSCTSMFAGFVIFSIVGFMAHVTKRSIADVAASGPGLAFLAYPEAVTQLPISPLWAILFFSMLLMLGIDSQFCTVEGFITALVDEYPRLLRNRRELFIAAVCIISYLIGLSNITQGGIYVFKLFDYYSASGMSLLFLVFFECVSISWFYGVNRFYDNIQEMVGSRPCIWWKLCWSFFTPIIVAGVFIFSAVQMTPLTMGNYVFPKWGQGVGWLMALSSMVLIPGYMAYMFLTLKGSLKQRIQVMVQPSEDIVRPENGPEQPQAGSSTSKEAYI
UniProt P19491, sequence (whole entry, looked up): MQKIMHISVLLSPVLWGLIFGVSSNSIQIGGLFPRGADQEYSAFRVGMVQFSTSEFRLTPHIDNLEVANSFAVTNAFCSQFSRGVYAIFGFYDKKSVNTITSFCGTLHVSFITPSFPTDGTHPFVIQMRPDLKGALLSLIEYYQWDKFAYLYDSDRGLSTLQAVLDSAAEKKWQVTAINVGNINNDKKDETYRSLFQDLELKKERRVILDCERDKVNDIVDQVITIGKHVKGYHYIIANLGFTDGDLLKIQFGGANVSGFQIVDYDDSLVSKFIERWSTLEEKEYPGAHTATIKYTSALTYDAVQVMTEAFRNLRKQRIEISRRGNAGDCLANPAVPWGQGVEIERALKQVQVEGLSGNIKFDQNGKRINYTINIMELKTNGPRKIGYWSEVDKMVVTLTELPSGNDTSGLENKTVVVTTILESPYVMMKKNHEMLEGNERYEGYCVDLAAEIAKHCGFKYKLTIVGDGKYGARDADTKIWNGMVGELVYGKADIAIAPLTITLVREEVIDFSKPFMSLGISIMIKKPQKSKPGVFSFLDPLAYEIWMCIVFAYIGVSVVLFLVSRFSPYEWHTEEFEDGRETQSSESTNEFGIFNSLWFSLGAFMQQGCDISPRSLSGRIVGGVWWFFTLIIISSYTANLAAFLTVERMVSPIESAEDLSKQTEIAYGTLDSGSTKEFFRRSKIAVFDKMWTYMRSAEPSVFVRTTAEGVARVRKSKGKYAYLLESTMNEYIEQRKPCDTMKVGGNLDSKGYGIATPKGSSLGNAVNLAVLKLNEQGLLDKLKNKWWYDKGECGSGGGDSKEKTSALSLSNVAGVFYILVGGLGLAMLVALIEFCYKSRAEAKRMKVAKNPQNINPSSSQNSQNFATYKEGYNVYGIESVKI
UniProt P31641, sequence (whole entry, unmodified, looked up): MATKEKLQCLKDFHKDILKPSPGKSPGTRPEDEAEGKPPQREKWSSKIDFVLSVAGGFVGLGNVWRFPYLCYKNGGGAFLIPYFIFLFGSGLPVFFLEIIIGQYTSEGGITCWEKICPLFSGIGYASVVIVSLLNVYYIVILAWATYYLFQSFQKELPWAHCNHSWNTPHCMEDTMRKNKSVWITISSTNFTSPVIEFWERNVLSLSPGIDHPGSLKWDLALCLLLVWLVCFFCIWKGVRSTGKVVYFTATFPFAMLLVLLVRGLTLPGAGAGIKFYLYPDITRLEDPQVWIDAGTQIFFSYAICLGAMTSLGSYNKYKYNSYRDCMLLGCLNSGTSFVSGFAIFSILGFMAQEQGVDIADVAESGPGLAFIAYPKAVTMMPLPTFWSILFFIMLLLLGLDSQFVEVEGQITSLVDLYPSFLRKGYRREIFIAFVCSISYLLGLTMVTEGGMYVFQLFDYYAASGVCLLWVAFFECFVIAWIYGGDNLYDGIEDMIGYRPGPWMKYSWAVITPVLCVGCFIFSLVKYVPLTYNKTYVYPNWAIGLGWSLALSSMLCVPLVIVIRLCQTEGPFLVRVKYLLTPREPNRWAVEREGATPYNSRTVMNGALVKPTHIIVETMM
UniProt Q9HB29, sequence (whole entry, looked up): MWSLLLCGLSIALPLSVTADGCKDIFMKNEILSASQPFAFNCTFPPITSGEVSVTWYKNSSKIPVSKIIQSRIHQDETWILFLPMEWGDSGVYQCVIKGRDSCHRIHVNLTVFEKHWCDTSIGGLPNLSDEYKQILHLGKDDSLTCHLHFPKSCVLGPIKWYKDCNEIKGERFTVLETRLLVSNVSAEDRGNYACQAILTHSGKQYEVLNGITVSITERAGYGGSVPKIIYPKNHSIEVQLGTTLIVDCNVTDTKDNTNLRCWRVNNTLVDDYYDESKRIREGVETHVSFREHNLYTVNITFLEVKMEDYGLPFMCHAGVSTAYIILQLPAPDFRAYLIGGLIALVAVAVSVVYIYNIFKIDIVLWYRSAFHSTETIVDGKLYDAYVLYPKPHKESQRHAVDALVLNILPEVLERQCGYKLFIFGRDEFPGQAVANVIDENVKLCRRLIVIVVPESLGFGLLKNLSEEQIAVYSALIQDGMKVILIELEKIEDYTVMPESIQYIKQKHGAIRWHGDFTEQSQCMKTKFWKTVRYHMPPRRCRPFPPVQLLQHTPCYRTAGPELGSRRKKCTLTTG
UniProt P00921, sequence (whole entry, looked up): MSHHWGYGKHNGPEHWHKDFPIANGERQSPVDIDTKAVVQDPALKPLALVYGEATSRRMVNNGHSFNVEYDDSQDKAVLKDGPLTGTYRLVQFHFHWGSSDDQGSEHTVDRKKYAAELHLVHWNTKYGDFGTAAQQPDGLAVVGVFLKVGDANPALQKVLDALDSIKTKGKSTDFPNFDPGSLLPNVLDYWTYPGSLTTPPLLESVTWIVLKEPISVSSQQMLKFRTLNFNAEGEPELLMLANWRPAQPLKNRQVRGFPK
UniProt P34972, sequence (whole entry, looked up): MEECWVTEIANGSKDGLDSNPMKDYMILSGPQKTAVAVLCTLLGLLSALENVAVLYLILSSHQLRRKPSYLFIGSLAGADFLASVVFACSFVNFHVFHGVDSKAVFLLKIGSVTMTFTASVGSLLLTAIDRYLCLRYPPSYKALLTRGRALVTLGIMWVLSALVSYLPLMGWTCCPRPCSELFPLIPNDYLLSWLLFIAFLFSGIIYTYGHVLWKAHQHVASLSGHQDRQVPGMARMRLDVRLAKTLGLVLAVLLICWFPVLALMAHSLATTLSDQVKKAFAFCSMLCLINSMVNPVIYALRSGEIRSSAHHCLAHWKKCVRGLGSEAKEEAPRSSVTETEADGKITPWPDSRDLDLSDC
UniProt P55210, sequence (whole entry, looked up): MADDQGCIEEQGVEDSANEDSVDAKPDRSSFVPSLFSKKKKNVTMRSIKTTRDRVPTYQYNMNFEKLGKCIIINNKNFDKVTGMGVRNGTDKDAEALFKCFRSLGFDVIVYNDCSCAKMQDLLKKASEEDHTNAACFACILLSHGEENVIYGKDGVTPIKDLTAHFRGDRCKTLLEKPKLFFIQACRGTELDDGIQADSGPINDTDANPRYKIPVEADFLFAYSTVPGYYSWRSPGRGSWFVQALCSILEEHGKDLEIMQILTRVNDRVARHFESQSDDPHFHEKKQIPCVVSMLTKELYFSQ

Cc1ccc(-n2cc(CNC(=O)c3cncc(Br)c3)nn2)cc1 — number of kinases hit (human kinase panel; binding, KINOMEscan; 10000 nM, %Ctrl below 1): 0
COc1ccc(C(OCCN2CCCC(C(=O)O)C2)(c2ccc(OC)cc2)c2ccc(OC)cc2)cc1 (stereo not drawn) — [3H]-GABA uptake (Sodium- and chloride-dependent GABA transporter 1 (SLC6A1, Homo sapiens, UniProt P30531); GABA transport, inhibitor, radioligand uptake; HEK293F transfected; 32 nM, 15 min pre, 45 min uptake, room temperature, together with: [3H]-GABA 30 nM, GABA 25 µM; higher = more uptake): 1290 a.u. and 1680 a.u. and 1150 a.u. and 5380 a.u. and 1140 a.u. and 4360 a.u. and 1270 a.u.
N=C(N)NCCS(=O)(=O)O — normalised MST signal (Sodium- and chloride-dependent taurine transporter (SLC6A6, Homo sapiens, UniProt P31641, G62A); binding, microscale thermophoresis; 1 mM, room temperature, together with: 50 nM labelled protein; higher = more binding): 0.00521
N#Cc1cnc2sc(C(=O)O)cc2c1N1CCc2[nH]nc(C(=O)N[C@@H](CC(=O)NCCOCCN3CCOCC3)c3cccc(Br)c3)c2C1 — remaining activity (Interleukin-1 receptor-like 2 (IL1RL2, Homo sapiens, UniProt Q9HB29); reporter gene (SEAP), inhibitor, HEK-Blue IL-36R reporter; HEK-Blue IL-36R cells; 1.23 µM, 6 h, together with: IL36A 0.01 ng/mL): 64.5%
NC(=O)c1cccc(NC(=O)c2cc(-c3cccs3)n(-c3ccc(Cl)cc3)n2)c1 — EC50 (Genome polyprotein NS2B-NS3 protease; reporter gene; HeLa): 17 µM
COC1CN([C@H]2CC[C@H]([C@@]3(C)Oc4c(Cl)cc(C(=O)NCc5c(SC)cc(C)[nH]c5=O)c(C)c4O3)CC2)C1 — log2 fold change (RNA-seq, refers to: NRTN; human, whole blood; dose not given, 24 h; baseline: pretreatment baseline): 3.53
O=C(Nc1ccc(CNc2ncccn2)cc1)c1cc(-c2ccccc2)n(-c2ccccc2)n1 — EC50 (Genome polyprotein NS2B-NS3 protease; reporter gene; HeLa): 34 µM
CN(C)c1ccc(C2=C/C(=C/C=C/c3sc4ccccc4[n+]3C)c3ccccc3O2)cc1 — binding (T1, G-quadruplex DNA, G-quadruplex (Homo sapiens); fluorescence turn-on): binds
CC(=O)N[C@H](CCc1ccccc1)C(=O)N[C@@H](CCC(=O)O)C(=O)N[C@@H](CCC(N)=O)C(=O)N[C@@H](CC(=O)O)C(=O)COC(=O)c1c(C)cccc1C — kinact/KI (Caspase-7 (CASP7, Homo sapiens, UniProt P55210); enzyme activity, inhibitor): 2800 M⁻¹ s⁻¹
O=C(O)Cc1cc2c(cc1C(=O)c1ccccc1Cl)OCO2 — deactivation time constant (Glutamate receptor 2 (Gria2, Rattus norvegicus, UniProt P19491); glutamate-evoked current, whole-cell patch clamp; HEK-293T; concentration not given, weighted tau, 1 ms pulse, together with: glutamate): 8.8 ± 0.7 ms
CCCCCCCCCCCCC/C=C/C=O — isoTOP-ABPP competition ratio (Condensin complex subunit 1 (Homo sapiens, UniProt Q15021); competitive isoTOP-ABPP, refers to: NCAPD2 cysteine peptide; Ramos soluble proteome; 100 µM, together with: iodoacetamide probe; baseline: DMSO over compound-treated, higher = stronger cysteine blockade): 1
Nc1ncnc2c1ncn2[C@H]1C[C@H](O)[C@@H](CO)O1 — binding (T2, riboswitch RNA, fused to Pepper aptamer; fluorescence; 5 µM, negligible activation): no binding
N[C@H]1CC[C@H](Nc2nccc(-c3cccnc3Oc3ccc(NC(=O)NC4CC4)c4ccccc34)n2)CC1 — log2 LFQ intensity (AarF domain-containing protein kinase 1 (ADCK1, Homo sapiens, UniProt Q86TW2); kinobead competition pulldown; HEK293/HCT116 lysate mixture; 10 µM, 1 h, 4 °C; lower = stronger competition): 20.8 and 18.6 and 20.3 and 18.9
CN(C)c1ccc2c(c1)C(=O)N(CCc1ccc(O)cc1)C2=O — emission maximum (Carbonic anhydrase 2 (CA2, Bos taurus, UniProt P00921); binding): 546 nm
C#CCOC(=O)[C@@]1(C)C=C(C(=O)OC(C)(C)C)C(=O)CC1 — normalized kinase activity (Mitogen-activated protein kinase 8 (MAPK8, Homo sapiens, UniProt P45983); enzyme activity, D-SENSOR; 0.02032 µM, single replicate): 1.19 and 0.906 and 1.01
Cc1ncsc1-c1ccc(C(C)NC(=O)C2CC(O)CN2C(=O)C(NC(=O)CCCCCCCCCCN2CCCC(Nc3ncc(Cl)c(Nc4ccccc4S(=O)(=O)C(C)C)n3)C2)C(C)(C)C)cc1 (stereo not drawn) — log2 fold change (22Rv1; RNA-seq, refers to: NEB; concentration not given; baseline: DMSO): -1.78
CCOC(=O)[C@](CC)(CCCSCCOCCOCCN)NC(=O)c1ccc(C2CC2)c(Cc2ccc(F)cc2)n1 — Emax (Cannabinoid receptor 2 (CNR2, Homo sapiens, UniProt P34972); cAMP, agonist): 91%
Cc1ccc2c(c1Br)C(O)(CC(=O)c1ccc3c(c1)OCO3)C(=O)N2 (stereo not drawn) — Hill slope (Uncharacterized protein (Trypanosoma brucei brucei, UniProt Q386Q8); inhibitor, coupled colorimetric; Trypanosoma brucei): 0.92

Repeated from above:
CN(C)c1ccc2c(c1)C(=O)N(CCc1ccc(O)cc1)C2=O — emission maximum (Carbonic anhydrase 2 (CA2, Bos taurus, UniProt P00921); binding): 546 nm
C#CCOC(=O)[C@@]1(C)C=C(C(=O)OC(C)(C)C)C(=O)CC1 — normalized kinase activity (Mitogen-activated protein kinase 8 (MAPK8, Homo sapiens, UniProt P45983); enzyme activity, D-SENSOR; 0.02032 µM, single replicate): 1.19 and 0.906 and 1.01
